Assay results from different studies.
Every numbered part comes from another study and shows a few of its results, in no order. Changes are numbered by the printed parent chain.

Block 1
Target: ABI1, truncated, D143A, DHFR fusion (Arabidopsis thaliana)
Technique: DHFR PCA, deep sequencing
Sample: yeast
Notes: methotrexate growth selection, single substitutions
Added: (+)-ABA 200 µM
Relative to: wild-type fitted maximum
Reading: higher = stronger binding
Starting sequence: PYL1, truncated, DHFR fusion (Arabidopsis thaliana); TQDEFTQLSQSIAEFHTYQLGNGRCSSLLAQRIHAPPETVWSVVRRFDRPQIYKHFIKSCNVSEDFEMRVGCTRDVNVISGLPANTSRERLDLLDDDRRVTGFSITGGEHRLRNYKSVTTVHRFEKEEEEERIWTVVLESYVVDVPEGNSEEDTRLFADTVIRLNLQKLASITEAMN
Variant	relative binding score [%]
D144I	34.9
G71A	58.1
S80H	72.1
T86A	94.5
I162E	-5.72
E127V	104
A30Y	99.1
V118E	-19.3
Y18D	67
D144Q	72.2
T17K	85.9
Q51F	84.4
A13P	57.7
A175I	90.7
R132F	99.5

Block 2
Target: RNA binding protein fox-1 homolog 2, RRM domain, GST-SBP tag (RBFOX2, Homo sapiens, UniProt O43251-10, residues 100-194)
Technique: RNA Bind-n-Seq
Molecule type: RNA
Sample: in vitro
Concentration: 365 nM
Notes: natural RNA segment, single round, ends assumed
Relative to: no-protein control
Reading: higher = stronger binding
All sequences stand within: GGGAGUUCUACAGUCCGACGAUC … UGGAAUUCUCGGGUGCCAA
Construct (chain): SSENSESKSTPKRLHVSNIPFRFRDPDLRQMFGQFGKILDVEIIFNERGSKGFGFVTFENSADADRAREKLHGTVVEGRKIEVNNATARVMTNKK
Oligonucleotide	RBNS enrichment (R)
ACUUGAAUUUUUAGGUCAGCCCAGGGGAGAAAGCUAACUGCUGAGCUCCUCCUGUGCCCCAAUCUUUCCCAGUCCUUUCCCCUCAGAUGGAGACUUCAUUAUGUUAAUGA	0.252
AAUGGCGUCUGCUCUGGUGGCUUAAGUGAGCAGAACAGGUAGUAUUACACCACCGGCCCCCUCCCCCCAGACUCUUUUUUUGAGUGACAGCUUUCUGGGAUGUCACAGUC	0.345
UGUGCCUGGCGUCUGUCCCGGCCCCGCCUGUCAGAAGAUGAACAUGUAUAGUGGCUAACUUAAGGGGAGUGGGUGACCCUGACACUUCCAGGCACUGUGCCCAGGGUUUG	0.236
AGGCCUGGGACAGAGUCAAGGCUCAGAGAAUAAAGGUAGCUAAUCUCAUCAUAAUAUUUUUAUUAGAAUGUUCUGAUGAUAAAAAUAAAACUUGUUUUCUUUAAAGAAAA	0.709
UAAGUGUGUGAUACAGUUUGUUACUUUUAAGUACAUUUUAAUAAUUUCAGACAUCUGCAUUUUUAUUGAACAGUUGACUGUAUCUGACCCAUCAUACUACUAUACUUCUG	0.345
CUGAGUAUGCAUUGAACAGUGGGGAUAUUAUAAACAGAAGCGCCUCUCUGAAGAACCCGGUUUCCGGUGUUGAGUGAUAGACUGGUUUGAGCGAGUACUGUUUUGUGGUG	7.23
GUCCUAUAUUUUUAAAGCACACGGAAGGAGCACCAGCAGCUCUGAUAGUAUUGUGAAAGUUCUGAGACCUUCCCUGGCUCAGGACCUCUGAGUUUCCUUCCCCCUCCCCC	0.725
AGAUCUCAAUCUUAUCCUUUGCCGCCUGCUAUCACCAUAUGGUGUUGGAUUCAAGUUUAAUUAGCUAAUAACCAUGGAGAUUGUUUUACAACUUUGUGAUAUGGUCAAGC	0.252
UUCUGCACCAGACAACCUGUUGAGGCGUAUAACCUGAUCUGUACAUUUUUUUAAGUGUGCAGGGCAGCCUGGACACAGCUUAGCGUUCUACGUGUAUAGUUCUCCAUGCU	0.202
GAUUUGCCAGUUUGGUGAAUACAGAUUGGUUCAUGGUUGUAGGUGUAGCUCAGAGUGCUUGUCUAACAUGCAAAAACCCUUGGAUUCAAUUUCUAGUACUGUUAGAAGAG	0.28

Block 3
Target: PABPC1L2, full length, GST fusion (mouse, UniProt A0ABA7IW68)
Technique: RNAcompete
Molecule type: RNA
Sample: in vitro
Concentration: 20 nM
Notes: 7-mer, probes averaged, single round
Relative to: mean of 7-mers
Reading: higher = stronger binding
Construct (chain): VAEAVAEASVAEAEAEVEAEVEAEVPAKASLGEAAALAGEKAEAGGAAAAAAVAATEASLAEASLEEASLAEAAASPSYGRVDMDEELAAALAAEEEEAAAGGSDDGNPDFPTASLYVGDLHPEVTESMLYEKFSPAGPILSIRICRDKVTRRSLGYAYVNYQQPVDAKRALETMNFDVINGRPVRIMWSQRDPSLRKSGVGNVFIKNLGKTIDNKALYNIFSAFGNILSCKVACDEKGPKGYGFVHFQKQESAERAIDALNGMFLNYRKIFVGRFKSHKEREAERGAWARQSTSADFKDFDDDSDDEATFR
Oligonucleotide	7-mer Z-score
CCUGCGA	-0.141
UGCCGGU	-0.271
GUGUAGC	-0.11
CGCUACA	-0.0808
GCGACUA	0.00254
CACGACU	-0.0645
AUAGUGG	0.115
AGGAAUG	-0.0246
CAAGCUC	-0.19
CGCGACU	-0.117

Block 4
Target: Histone acetyltransferase KAT6A, winged helix 1, GST fusion (KAT6A, Homo sapiens, UniProt Q92794, residues 1-85)
Technique: protein binding microarray
Molecule type: double-stranded DNA, one strand shown
Sample: in vitro
Concentration: not given
Notes: 8-mer, flanks averaged, mean of 2 arrays, mostly near background
Relative to: not given
Reading: higher = stronger binding
Target sequence (chain): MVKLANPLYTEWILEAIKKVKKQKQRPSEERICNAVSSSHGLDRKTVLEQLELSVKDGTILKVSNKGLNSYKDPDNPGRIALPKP
Oligonucleotide	E-score
ATGCAGCC	-0.166
CAATGACG	0.00851
CTCTCTTC	-0.0909
GTGCCAGA	-0.191
CATCCCGC	0.355
ACGAGATA	-0.235
ACCCGTCG	0.421
AGTTTATC	-0.0885
AAGGGTAG	-0.0039
ACCCACCC	-0.0259
TATACCAA	-0.107
ACCCCGCG	0.394
GCGGATGA	0.117

Block 5
Target: Sal-like protein 4, full length isoform B (SALL4, Homo sapiens, UniProt Q9UJQ4-2, residues 1-616)
Technique: universal PBM
Molecule type: double-stranded DNA, one strand shown
Sample: in vitro
Concentration: not given
Notes: 8-mer, flanks averaged, mean of replicates
Reading: higher = stronger binding
Construct (chain): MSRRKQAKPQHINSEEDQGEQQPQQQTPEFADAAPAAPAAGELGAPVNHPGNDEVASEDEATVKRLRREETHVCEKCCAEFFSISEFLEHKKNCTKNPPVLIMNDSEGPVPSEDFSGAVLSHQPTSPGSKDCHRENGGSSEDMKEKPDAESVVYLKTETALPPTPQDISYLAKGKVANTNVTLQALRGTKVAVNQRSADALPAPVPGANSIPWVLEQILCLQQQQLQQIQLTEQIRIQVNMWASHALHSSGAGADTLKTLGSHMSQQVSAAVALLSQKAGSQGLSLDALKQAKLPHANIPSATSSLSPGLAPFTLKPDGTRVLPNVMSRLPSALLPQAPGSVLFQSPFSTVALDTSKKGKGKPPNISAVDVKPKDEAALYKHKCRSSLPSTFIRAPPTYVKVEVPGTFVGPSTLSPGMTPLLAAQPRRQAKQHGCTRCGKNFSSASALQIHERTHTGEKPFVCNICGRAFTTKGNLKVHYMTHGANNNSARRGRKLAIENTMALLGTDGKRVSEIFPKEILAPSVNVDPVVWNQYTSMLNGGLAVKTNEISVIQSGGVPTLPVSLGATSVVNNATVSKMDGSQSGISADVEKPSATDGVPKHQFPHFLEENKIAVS
Oligonucleotide	E-score
CCGGCAGC	-0.324
AACAAGTC	0.0238
AGGCTACG	-0.178
GCCAACAC	-0.0576
GGCATCCC	-0.344
GAGCGTGA	-0.183
CAAAGTCG	-0.117
CGGCCTAA	-0.146
AGCGCCCA	-0.289
AGGCGGGC	-0.239
CACGATGC	-0.176
CATTGCCA	0.0533
CTCCTTGA	-0.049

Block 6
Target: Prothrombin, mature alpha-thrombin (F2, Homo sapiens, UniProt P00734)
Technique: aptamer microarray, sandwich
Molecule type: DNA with 2'F-ANA
Sample: in vitro
Concentration: 200 nM
Notes: whole 15-mer aptamer, many near background
Added: Cy3 exosite-II aptamer, 400 nM
Reading: higher = stronger binding
Oligonucleotide: GGTTGGTGTGGTTGG
Modification	mean fluorescence intensity
2'F-ANA at 2 3 5 6 7 10 11 12 14 15	51.1 a.u.
2'F-ANA at 2 4 6 7 12 14	149 a.u.
2'F-ANA at 2 6 7 8 9 12 14 15	175 a.u.
2'F-ANA at 2 3 5 7 9 10 13 15	54.3 a.u.
2'F-ANA at 1 3 4 5 7 9 10 12 13 14	47.8 a.u.
2'F-ANA at 1 8 9 10 11 14	50.1 a.u.
2'F-ANA at 1 2 4 5 7 11 14	76 a.u.
2'F-ANA at 1 4 6 9 10 13 15	48.1 a.u.
2'F-ANA at 2 6 7 9 10 11 13 14	72.6 a.u.
2'F-ANA at 1 3 4 5 7 10 11	48.3 a.u.
2'F-ANA at 2 3 5 6 8 9 10 11 12 15	56 a.u.
2'F-ANA at 1 3 5 9 10	51.3 a.u.
2'F-ANA at 3 4 5 7 9 10 11 14 15	51.8 a.u.
2'F-ANA at 2 3 4 6 8 9	568 a.u.
2'F-ANA at 1 3 5 7 10 12 13 14 15	45 a.u.
2'F-ANA at 4 5 11 13 14 15	46.7 a.u.
2'F-ANA at 1 2 4 5 7 8 10 12 13 14 15	47.9 a.u.
2'F-ANA at 2 3 4 5 6 7 8 10 13 14	49.8 a.u.
2'F-ANA at 5 6 8 13 15	56.1 a.u.
2'F-ANA at 2 3 13 14	458 a.u.
2'F-ANA at 1 5 6 10 13	50.4 a.u.

Block 7
Target: Interferon regulatory factor 7, full length, phosphomimetic (IRF7, Homo sapiens, UniProt Q92985, residues 1-503, S471D/S472D/S475D/S476D/S477D/S483D/S484D/S487D)
Sequence of UniProt Q92985 (whole entry, unmodified, looked up): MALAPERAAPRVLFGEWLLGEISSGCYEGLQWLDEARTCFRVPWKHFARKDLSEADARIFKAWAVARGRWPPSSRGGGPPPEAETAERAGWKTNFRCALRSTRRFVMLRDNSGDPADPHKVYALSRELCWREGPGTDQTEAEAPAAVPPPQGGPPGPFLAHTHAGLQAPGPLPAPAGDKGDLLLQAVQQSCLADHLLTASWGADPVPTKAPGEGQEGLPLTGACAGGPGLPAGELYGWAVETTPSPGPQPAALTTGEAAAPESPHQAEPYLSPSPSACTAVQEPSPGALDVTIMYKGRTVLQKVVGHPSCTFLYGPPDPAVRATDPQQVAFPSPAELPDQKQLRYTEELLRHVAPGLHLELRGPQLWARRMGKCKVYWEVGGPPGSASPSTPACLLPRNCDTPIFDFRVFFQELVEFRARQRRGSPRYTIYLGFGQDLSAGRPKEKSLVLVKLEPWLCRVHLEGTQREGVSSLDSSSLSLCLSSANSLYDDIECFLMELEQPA
Technique: protein-binding microarray
Molecule type: double-stranded DNA, one strand shown
Sample: in vitro
Concentration: 2200 nM top
Notes: 60-bp whole probe
Added: salmon DNA 0.4 mg/ml
Relative to: random background probes
Reading: higher = stronger binding
All sequences stand within: GCCTAGCAC … GTCTTGATTCGCTTGACGCTGCTG
Oligonucleotide	fitted relative affinity [z-score]
GACGATATCAGATTGGAGACGTGCTAG	0.0564
GAGGCAAGGAGGGAGAACAGGTGCTAG	-1.59
TTAGATATCAGATTCGATTAGTGCTAG	1.15
TTCGATCTCAGTCTCGATTAGTGCTAG	0.947
TTAGATATCCGTTTCGATTAGTGCTAG	3.23
TTAGCACTGAGTTTCGATTAGTGCTAG	3.49
GACGGTCTCGGTTTCCGGACGTGCTAG	2.53
TAGAGGGAGTAAAGGAAAGAGTGCTAG	-1.64
ATGTGTTTACAGATGTTTTTGTGCTAG	1.05
GACGGTTTCGGGTATCAGGACGTGCTA	5.89
TCAGTCTTCCCCATCTTACTGTGCTAG	2.1
GACGAACTGAGGCTCGAGACGTGCTAG	-0.228
GACGATATCAGTATCGCGACGTGCTAG	0.229
TAAGGTTCCGGTTTCGGTTAGTGCTAG	8.68

Repeated from above (block 2):
Oligonucleotide	RBNS enrichment (R)
AGGCCUGGGACAGAGUCAAGGCUCAGAGAAUAAAGGUAGCUAAUCUCAUCAUAAUAUUUUUAUUAGAAUGUUCUGAUGAUAAAAAUAAAACUUGUUUUCUUUAAAGAAAA	0.709
UAAGUGUGUGAUACAGUUUGUUACUUUUAAGUACAUUUUAAUAAUUUCAGACAUCUGCAUUUUUAUUGAACAGUUGACUGUAUCUGACCCAUCAUACUACUAUACUUCUG	0.345
CUGAGUAUGCAUUGAACAGUGGGGAUAUUAUAAACAGAAGCGCCUCUCUGAAGAACCCGGUUUCCGGUGUUGAGUGAUAGACUGGUUUGAGCGAGUACUGUUUUGUGGUG	7.23
GUCCUAUAUUUUUAAAGCACACGGAAGGAGCACCAGCAGCUCUGAUAGUAUUGUGAAAGUUCUGAGACCUUCCCUGGCUCAGGACCUCUGAGUUUCCUUCCCCCUCCCCC	0.725
AGAUCUCAAUCUUAUCCUUUGCCGCCUGCUAUCACCAUAUGGUGUUGGAUUCAAGUUUAAUUAGCUAAUAACCAUGGAGAUUGUUUUACAACUUUGUGAUAUGGUCAAGC	0.252
UUCUGCACCAGACAACCUGUUGAGGCGUAUAACCUGAUCUGUACAUUUUUUUAAGUGUGCAGGGCAGCCUGGACACAGCUUAGCGUUCUACGUGUAUAGUUCUCCAUGCU	0.202
